Assay results from different studies.
Each line is one published result; not all experiments were run side by side. ± gives the spread as reported.

Compound	tested on	test	test system	conditions	scale	measurement	result
CCc1cc2ncc(CN3CCN(c4ccc(C(=O)NC)nc4)CC3)cc2[nH]c1=O			male rat, blood	oral, 50 mg/kg/day, 4 weeks	relative to: vehicle control	Neutrophils count ratio	0.56
CC(C)(C(=O)N1CCOc2c(C#N)cncc2C1)C(F)F		refers to: Dyspepsia	human	oral, 10 mg once daily, 14 days, multiple ascending dose		subjects with adverse event	0%
NC1(C(=O)N[C@@H](CCO)c2ccc(Cl)cc2)CCN(c2nc[nH]c3nccc2-3)CC1			metastatic CRPC patients	320 mg b.i.d., grade 3 to 4, treatment-related, added: enzalutamide 160 mg daily		incidence of Blindness	0%
C[C@H]1CN(C(=O)CC#N)[C@]12CCN(c1ncnc3[nH]ccc13)C2			healthy human	oral, 1.5 mg, single dose		subjects with Arthralgia	0%
CCC[C@@H]1C[C@@H](C(=O)N[C@@H]([C@H]2O[C@H](SC)[C@H](O)[C@@H](O)[C@H]2O)[C@@H](C)O)N(C)C1		starch gel membrane permeability	Gram-negative envelope surrogate	200 µM, 30 min, pH 7.4		amount permeated	1.41 nmol
COc1ccc(C2CC(=O)c3c(O)cc(O)cc3O2)cc1O[C@@H]1O[C@H](C(=O)O)[C@@H](O)[C@H](O)[C@H]1O (some centres unmarked)			human plasma	mean		plasma concentration	766 nM
COCCOCc1ccc(-c2cc3onc(-c4ccccc4)c3c(=O)n2C)cc1	COS-7	WST-8		3 µM, 24 h, 0.1% DMSO, unit not given	relative to: vehicle control	metabolic activity	0.96
OC[C@H]1O[C@@H](c2ccc(Cl)c(Cc3ccc(O[C@H]4CCOC4)cc3)c2)[C@H](O)[C@@H](O)[C@@H]1O			Japanese type 1 diabetes patients, blood	2.5 mg, day 28	relative to: baseline	change in Phosphate	0 mg/dL
COc1cc([C@@H]2[C@H]3CO[C@@]4(O)C(=O)[C@@H]2C=C([C@H]2Oc5cc(O)cc(O)c5C(=O)[C@@H]2O)[C@@H]34)ccc1O			OATP1B1/1B3 humanized mice, plasma	oral gavage, 500 mg/kg silymarin, geometric mean		AUC(0-4h)	0.34 µM·h
Cc1noc(C)c1-c1cc(C(O)(c2ccccn2)c2ccccn2)c2nc(C3CC3)[nH]c2c1			human male, fasted, plasma	oral, 2 mg once daily, cycle 1 day 8		AUCtau	4260 ng·h/mL
N#Cc1ccc(-c2cnc3ccc(-c4ccc(C(=O)N5CCOCC5)cc4)cn23)cc1		refers to: QRS interval	healthy volunteers	oral, 10 mg, fasted, time-averaged		placebo-corrected change from baseline	3.7 ms
COc1c(O)cc2c(c1O)C(=O)c1c(cc(C)c(O)c1OC)C2=O	HepaRG co-cultured with HK-2	MTT		16.67 µM, 48 h	relative to: untreated control	cell viability	109 ± 7.75%
CCc1nc(C(N)=O)c(Nc2ccc(N3CCC(N4CCN(C)CC4)CC3)c(OC)c2)nc1NC1CCOCC1			Japanese patients, plasma	oral, 80 mg, cycle 1 day 28, multiple doses, median	relative to: single dose	accumulation ratio (AUC)	4.68
O=C(O)/C=C/c1ccc(O[C@@H]2O[C@H](C(=O)O)[C@@H](O)[C@H](O)[C@H]2O)c(O)c1			human plasma	median		plasma concentration	360 nM
CC(C)NCCCC[C@@H]1NC(=O)[C@H](Cc2ccc(O)cc2)NC(=O)[C@H](Cc2ccccc2)NC(=O)CC[C@H](C(=O)N[C@@H](CCCCNC(C)C)C(=O)N[C@@H](CCCCNC(=O)[C@H](CCC(=O)O)NC(=O)[C@H](CCC(=O)O)NC(=O)[C@H](CCC(=O)O)NC(=O)CN2CCN(CC(=O)O)CCN(CC(=O)O)CCN(CC(=O)O)CC2)C(N)=O)NC(=O)CNC(=O)[C@H](Cc2ccc3ccccc3c2)NC(=O)[C@@H](CCCNC(=N)N)NC1=O [gallium-68 labelled]			mouse with PC-3 xenograft, liver	intravenous, 1 h		tissue uptake	0.6 %ID/g
CC(C)C[C@H](NC(=O)CNC(=O)c1cc(Cl)ccc1Cl)B(O)O		refers to: Thrombocytopenia	human newly diagnosed multiple myeloma	oral, dose not given, maintenance, grade 3, onset cycle 17 or later		treatment-emergent adverse events	0%
Cc1cc(NC2CCN(C(=O)OC3CCN(C(=O)/C=C/CN(C)C)C3)CC2)n2ncc(C(C)C)c2n1 (centres unmarked)		Phase I dose escalation CTCAE v4.0, refers to: urinary tract infection	patients with advanced solid tumours	dose not given, Total dosing grade 3 or higher		patients with adverse event	0%
CCCCCCCCC(=O)c1cc(O)c(O)c(O)c1	COS-7	WST-8		30 µM, 24 h, 0.1% DMSO, unit not given	relative to: vehicle control	metabolic activity	0.96 ± 0.03
Cc1cc(-c2nccc3c2ccn3CC(=O)Nc2ccc(-c3cnccn3)cn2)ccn1			human	SAD part, single 40 mg dose		subjects with Wheezing TEAEs	0%
O=S(=O)(O)Oc1cc(CCO)ccc1O			human plasma	mean		plasma concentration	282 nM
Cc1ccc([C@@H]2O[C@H](CO)[C@@H](O)[C@H](O)[C@H]2O)cc1Cc1ccc(-c2ccc(F)cc2)s1			Japanese type 2 diabetes patients	400 mg, day 2, 24 h urine collection	relative to: baseline	urinary chloride excretion change	-37 mEq
CCN1/C(=C/C(C)=O)Sc2ccc(F)cc21			cynomolgus monkey	oral, 10 mg/kg, 0.5 h post-dose	relative to: pre-dose	systolic blood pressure change	103 ± 5.1%
COc1cc(O)c2c(c1)C(=O)c1cc(C)cc(O)c1C2=O	HepaRG co-cultured with HK-2	MTT		16.67 µM, 48 h	relative to: untreated control	cell viability	95.3 ± 5.75%

For quick reference, copied from above:
Compound	tested on	test	test system	conditions	scale	measurement	result
CCN1/C(=C/C(C)=O)Sc2ccc(F)cc21			cynomolgus monkey	oral, 10 mg/kg, 0.5 h post-dose	relative to: pre-dose	systolic blood pressure change	103 ± 5.1%
COc1cc([C@@H]2[C@H]3CO[C@@]4(O)C(=O)[C@@H]2C=C([C@H]2Oc5cc(O)cc(O)c5C(=O)[C@@H]2O)[C@@H]34)ccc1O			OATP1B1/1B3 humanized mice, plasma	oral gavage, 500 mg/kg silymarin, geometric mean		AUC(0-4h)	0.34 µM·h
